Experimental data from different studies.
Parts stem from different laboratories: compare values within a part only. Positions count from the first letter of the parent shown.

Block 1
Target: ABI1, truncated, D143A, DHFR fusion (Arabidopsis thaliana)
Technique: DHFR PCA, deep sequencing
Matrix: yeast
Notes: methotrexate growth selection, single substitutions
Added: (+)-ABA 200 µM
Reference: wild-type fitted maximum
Direction: higher = stronger binding
Measurement: relative binding score
Starting sequence: PYL1, truncated, DHFR fusion (Arabidopsis thaliana); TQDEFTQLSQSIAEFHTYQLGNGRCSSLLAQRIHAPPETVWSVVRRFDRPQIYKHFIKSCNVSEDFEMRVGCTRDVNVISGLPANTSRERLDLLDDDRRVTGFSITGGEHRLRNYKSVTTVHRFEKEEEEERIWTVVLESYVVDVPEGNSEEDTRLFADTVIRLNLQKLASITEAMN; partner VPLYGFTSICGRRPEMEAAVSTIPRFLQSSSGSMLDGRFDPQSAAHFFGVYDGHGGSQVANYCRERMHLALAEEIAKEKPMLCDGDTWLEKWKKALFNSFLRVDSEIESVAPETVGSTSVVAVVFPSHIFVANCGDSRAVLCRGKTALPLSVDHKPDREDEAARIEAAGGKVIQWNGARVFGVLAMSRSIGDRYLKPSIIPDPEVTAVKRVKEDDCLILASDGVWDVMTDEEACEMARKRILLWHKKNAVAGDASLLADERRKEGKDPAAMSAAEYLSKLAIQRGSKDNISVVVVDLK
N149R: 21.7%
E64L: 91.9%
L20K: 102%
L156I: 94.2%
N77M: 103%
A30V: 99.9%
T39S: 93.1%
T119W: -0.698%
I52R: 98.7%
L93P: 6.14%
E151L: 93%
C72N: 94.8%
D153S: 49.6%
E127F: 97.3%
A13G: 94.2%
A30N: 87.3%
S27H: 93.8%
A175N: 105%
E14F: 74.7%
D3R: 94.9%
T120V: -4.9%
I105H: 6.33%
R99F: 113%
T160R: 79.8%
N85P: 63.6%

Block 2
Target: Ras GTPase-activating protein-binding protein 1, full length (G3BP1, Homo sapiens, UniProt Q13283)
Sequence of UniProt Q13283 (whole entry, looked up): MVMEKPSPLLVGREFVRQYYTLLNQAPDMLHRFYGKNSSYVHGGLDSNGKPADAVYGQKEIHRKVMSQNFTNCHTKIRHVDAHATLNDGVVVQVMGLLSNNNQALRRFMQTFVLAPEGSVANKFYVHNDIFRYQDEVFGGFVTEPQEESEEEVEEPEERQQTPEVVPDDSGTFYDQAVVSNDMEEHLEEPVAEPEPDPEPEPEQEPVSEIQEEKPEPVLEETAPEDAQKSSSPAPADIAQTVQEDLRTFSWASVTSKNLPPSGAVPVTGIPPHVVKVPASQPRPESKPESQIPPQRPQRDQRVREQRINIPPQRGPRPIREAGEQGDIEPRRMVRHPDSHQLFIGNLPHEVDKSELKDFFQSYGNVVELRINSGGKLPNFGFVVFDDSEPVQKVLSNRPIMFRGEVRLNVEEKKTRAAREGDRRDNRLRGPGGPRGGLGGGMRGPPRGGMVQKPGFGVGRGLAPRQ
Technique: RNA Bind-n-Seq
Form: RNA
Matrix: in vitro
Tested at: 200 nM
Notes: whole 134-nt RNA, ends assumed
Added: 150 mM KCl
Reference: input library
Direction: higher = stronger binding
Measurement: log2 enrichment
Shared flanks, not repeated: GGGAGUUCUACAGUCCGACGAUC … UGGAAUUCUCGGGUGUCAAGG
CUGUGCUACACAUCGUAUGUACCGAAUCGGGGAAAAAAGGGGAAAAAAGGGAAAAAAGGGGAAAGUAUUAUGUUACGCCGUUCGGAUCUG: -0.204
AAGUCCUGUGCUACACAUCGUAUGUACCGAAUCGGGUUUGGGUUUUUUUGGGUGGGAAAGUAUUAUGUUACGCCGUUCGGAUCUGCACUU: 0.258
CCUGUGCUACACAUCGUAUGUACCGAAUCGGGGUUUUUUUGGGGUGGGGAAAAAAAGGGGAAAGUAUUAUGUUACGCCGUUCGGAUCUGC: 0.205
CAAGUCCUGUGCUACACAUCGUAUGUACCGAAUCGGUUUUUUUGGAGGUUUUUGGAAAGUAUUAUGUUACGCCGUUCGGAUCUGCACUUC: -0.694
UUAGGGUCAUGUGAAGGUGGUGCGCUACUUAGUCAAAGAAGUCAAUCAGUUUCCAUCAGAUUCUGAAUGUAUGAGAUACAUAGCAACCAU: -1.57
ACCAUGCAGGUGGGCAUCUUUGGGAAGUGGGGCAAGGGGGGGAUAGGGGGGGGGGUAACACUUUGGGAACAGGUGGUCCCAGGUCGUUUC: 1.24
UGGCCCUGGUGGCAUGCGGGGAGGAAGAGGUGGCCUCAUGGAUCGUGGUGGUCCCGGUGGAAUGUUAAGAGGUGGCCGUGGUGGAGACAG: 0.28
CCUCAAGUCCUGUGCUACACAUCGUAUGUACCGAAUCGGAGGUUUGGAAAGGAAAGUAUUAUGUUACGCCGUUCGGAUCUGCACUUCCAG: -0.187
AGUCCUGUGCUACACAUCGUAUGUACCGAAUCGGUUUUUGGGUUUUUGGGGUUUUUGGAAAGUAUUAUGUUACGCCGUUCGGAUCUGCAC: -0.843
CUGUGCUACACAUCGUAUGUACCGAAUCGGGGAAAAAAAGGAAAAAAAGGGAAAAAAAGGGAAAGUAUUAUGUUACGCCGUUCGGAUCUG: -0.742
UCAAGUCCUGUGCUACACAUCGUAUGUACCGAAUCGGGAGGGAAAGGGAAAGGGAAAGUAUUAUGUUACGCCGUUCGGAUCUGCACUUCC: 0.915
UAACUUUAGAGGAGGAUCUGAUGGAUAUGGCAGUGGACGUGGAUUUGGGGAUGGCUAUAAUGGAUAUGGAGGAGGACCUGGAGGUGGCAA: 0.357
CACAGACAACACGCACCCACACAGACACAGAGGGAAGGGGUUGGGAUGGGGAGAGGGUGCACAGCAGGGCGGGGUAGGACCCCAGCCCCU: 1.84
CUCAAGUCCUGUGCUACACAUCGUAUGUACCGAAUCGGGGCCGGCCGGCCGGGGAAAGUAUUAUGUUACGCCGUUCGGAUCUGCACUUCC: 0.116

Block 3
Target: human cyclin A2
Technique: competitive growth deep sequencing
Form: peptide
Organism: Saccharomyces cerevisiae
Strain: cyclin A2-Cln2 fusion strain
Notes: peptide tiling library
Direction: direction not given
Measurement: enrichment score
RKLHFEDEVT: 2.99
TTTTSPRTPPPLTVQD: 0.658
LRRQLSFSED: 1.06
NFETPEAETPIRSPFK: 0.541
SCCKRKLVVGNGPEGP: -0.0776
NNIRKALSFDNRGEEH: 0.557
GAEELEDLVHFSVSEL: 2.02
DWDTVERQEEEAPSWD: 1.36
RRVLCFDS: -0.0902
PPTFLSTGEIHAFLSS: -0.516
GFGFLLFICKLTF: 0.324
VSRNLRSSLKSSLHTL: -0.911
KVKRRLDLDIDGLQKE: 1.94
ARKRLELGNLGNPQ: 2.3
LRRKLFLDGNGSIS: -0.558
PPKPLKKLRFDIEGSD: 0.17

Block 4
Target: RING finger protein unkempt homolog, zinc fingers 1-6, GST-SBP tag (UNK, Homo sapiens, UniProt Q9C0B0, residues 30-357)
Sequence of UniProt Q9C0B0 (30-357, looked up): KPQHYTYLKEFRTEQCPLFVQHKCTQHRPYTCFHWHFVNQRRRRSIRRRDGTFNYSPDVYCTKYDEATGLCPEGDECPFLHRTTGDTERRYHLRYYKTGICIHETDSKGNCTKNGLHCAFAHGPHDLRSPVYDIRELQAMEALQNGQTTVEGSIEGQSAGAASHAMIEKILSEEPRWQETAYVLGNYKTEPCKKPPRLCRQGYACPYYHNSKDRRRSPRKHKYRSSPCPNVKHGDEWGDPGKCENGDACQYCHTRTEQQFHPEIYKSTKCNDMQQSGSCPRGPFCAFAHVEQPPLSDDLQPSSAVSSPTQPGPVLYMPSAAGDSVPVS
Technique: RNA Bind-n-Seq
Form: RNA
Matrix: in vitro
Tested at: not given
Notes: RNA with constant flanks, ends assumed
Reference: input RNA pool
Direction: higher = stronger binding
Measurement: bound/input enrichment
Shared flanks, not repeated: GGGAGUUCUACAGUCCGACGAUC … CAACAGAGGAUUGAGCAUCA
GUUCCGGAAAUCAUGGAUCGGAUCUACAAAAAUGUCAUGAAUAAAGUCAGUGAAAUGAGCCGUUUUCAACGUAAUCUGUUUAUUCUGGCCUAUAAUUACAAAAUGGAACAGAUUUCAAAA: 0.242 ratio
AUACAAGCCUUACCAACAAUUACAGAAACAUUAAACACUAUGACACAUUACCUUUUCCGCUAUUUUUAAUAGUCUUCUAUUUUCACUCUUGAUAAGCUUAUAAAAUCAUGAUUGAAUCAG: 1.66 ratio
UGUGACAAGCUUUAUACCUGCCGGCUGUGUCACGAUACCAAUGAAGAUCAUCAGCCCGAUCGUUUCAAAGUCAAGGAAGUGCAGUGCAUCAACUGUGAAAAACUCCAACAUGCCCAGCAG: 0.135 ratio
GCUCUUGCAUAUGGAAUCUAUAAGCAGGAUCUUCCUGCCUUAGAAGAGAAACCAAGAAAUGCCGUUUUUGUAGACAUGGGCCACUCUGCUUAUCAAGUUUCUGUAUGUGCAUUUAAUAGA: 0.278 ratio
UUCCGACAGUUUAUACUGGUUAUGAAUGCUUUAGAUAACAGAGCUGCCCGAAACCAUGUUAACCGAAUGUGCCUGGCAGCUGAUGUUCCUCUUAUUGAAAGUGGAACAGCUGGGUAUCUU: 0.116 ratio
GUAAUCAGCAGAGACAUUGAUACUGCUGCCAAAUUCAUUGGUGCAGGUGCUGCAACAGCCGGAGUUGCUGGUUCUGGUGCUGGUAUUGGAACAGUCUUUGGCAGUCUUAUCAUUGGUUAU: 0.195 ratio
GUCAAGGCCAAAACACUAAGAAAACUGAUCCAACAAACAUUUAGACAAUUUGCCAACCUUAACCGAGAAGAAAGUAUUCUGAAAUUCUUUGAGAUCCUGUCUCCAGUCUACAGAUUUGAU: 3.75 ratio
AUAACCAUCUAUCGGGAAGAGGGCAUUCUAGGAUUUUUCGCGGGUCUUGUUCCUCGCCUUCCCGGUGACAUCCUUUCUUUGUGGCUGUGUAACUCACUGGCCUACCUCGUCAAUACCUAU: 0.259 ratio
CAUCACCGGGUGGGCGAGAUGGCUCCACCCAAUGCCUACACUGUCACCGACUUGGUGGAGUACCGCAUCAUCAUAGAACAGCUCUCCAAUGGCAAGUGGGUCCCCUUUGAUGGUGAUGAC: 0.279 ratio
UAUCAGUCUCUCCUUAUCAGAGGAGAGACCUUUUAUUUUUAAGAUGACUACAGACCUAUUUUCCGAUAAGUUUUCAGUACAAUUUUGAACUACAACUUUUUUAACAAAACAUCUUCCAGU: 0.144 ratio
UCAUCAAUUGCAACUUCUUCAGUGAAAGGUCUUUCAACUACAGGAAACUCGUCUCUUAACCGUACAUCCAACACUAAAGUGUCAGCGAUACCUACCAAUAUGGCUGCCAAGAAAACAUCU: 0.126 ratio

Block 5
Target: RNA binding protein fox-1 homolog 2, RRM domain, GST-SBP tag (RBFOX2, Homo sapiens, UniProt O43251-10, residues 100-194)
Technique: RNA Bind-n-Seq
Form: RNA
Matrix: in vitro
Tested at: 365 nM
Notes: natural RNA segment, single round, ends assumed
Reference: no-protein control
Direction: higher = stronger binding
Measurement: RBNS enrichment (R)
Shared flanks, not repeated: GGGAGUUCUACAGUCCGACGAUC … UGGAAUUCUCGGGUGCCAA
Residues (chain): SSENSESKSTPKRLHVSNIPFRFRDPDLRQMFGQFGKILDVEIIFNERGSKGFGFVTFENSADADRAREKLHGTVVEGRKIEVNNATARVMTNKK
AGUGGGCUGUUUUGCCUUGUUUGUGCUUCUUCAGGACAGAGCAGUCCUGAUGAUACAGUAAUUGAUGGCAGACAGUUCUGUCUCCUUCCCAGUUGUUAGGCUGCCCCCCU: 0.331
GUUCUAAAUUUAAAACAAAUAAUAAUUGGAACAAAUAAAGGUUCUUGUACCCAGAGUGAUUCUACAUGGGAAAAACAAACCAGCUUUUUUCAGAGAGUGACCGAAUAGGA: 0.337
UUAUAAAAUGAUUACUUUGUAUAUCUCAUUAUUCCUAUUUUGGAAUAAAAACUGACCUUCUUUAAUCAUAUACUUGUCUUUUGUAAAUAGCAGCUUUUGUGUCAUUCUCC: 0.512
UAAUAUCCCUAUCCAUGGAUCAUUUGAGUAUUGACUAAUGUACAUAGGUACCCAACUGGUUGAUUAUUAAUCAAGAAUACAGAACUUUAUUUAAUAAUUAGCACACCCUG: 0.311
CAAAAUAGAGCUUCCCAUGGUGUGCCCUAUCCUAGGUUUAAGAAAACACGUAUGAAGUUUAUGCUGAUGCAAAGAACUUGGGUUUUUAUGUUAAUAUAAAGUGUUGUUUU: 0.552
CUGUUAAAAGCAUUCAGUUUUAAAAGGGAAACAGACUAUAAAAGUUUGGAAAAUUUGCAGCCUGAUGAUGAGAUAGAAAAGAAAAACCCAUUUUCUGAGGAUAAAUUCAA: 0.709
CGUGCAGCUUUUCUAUAUGCACGUGUUUUAUUAAUCUGAAUAUUCUCCUUCUGUCUCGGUUUGUGUCCCUUUCAUUCCCUUUUAGUAUUUGCAAGAGGAAAAUUGUCUGU: 0.94
UAAUUACCUAGCUGUUGCUGGACACCAGCUGUGCAUACCUGAGCAUGCCCAGUGCAUGUUGGGUCCAUGCACAACUCCUGGACCCGAGCUUUCACCAAGCUCUGGCCUCC: 0.239
UGUAUAGAUUGUGCAUUAAAAGCUGUUACCAAGUUGUCAGAACAUAAGAGCGAAAACAAGGUCAUAUGUAAUAUUUUGUUUGUAAGUAUCCUUUGUAUCAUAGCAAAGGA: 0.623
GAUUCAUCUACUAACAAAUUCAAAUUAAACCUUCACAUAGUAGGAGACUUUGUAGACUACUAUAAAGACCAUCCUGAGCCAGACCUGCAGUCAACAGCAAGAGCAAGAAG: 0.325
CCUAUGGGAAACCUAGGUUUCAUUAUAGCUGAAGUAGACACAUGAAUUAAAAACAUUACAAAUGAAAUUUGUUUGUUUUUUCUCUUUUAUUAAUGUGUAUAAAUGUGAGU: 0.396
CAGAGACAGUAUUGUAUAACCAAAGUAUUUGAUGCCAAAAUUUGACGUUAAAAUAAUGAUUUGAUUUCCUGCCCUGGUUUGAAGGUCCAUUUUAUUCCUUUGCACUCAUU: 0.371

Some of these lines once more (block 1):
D153S: 49.6%
E127F: 97.3%
A13G: 94.2%
A30N: 87.3%
S27H: 93.8%
A175N: 105%
E14F: 74.7%
D3R: 94.9%
T120V: -4.9%
I105H: 6.33%
R99F: 113%
T160R: 79.8%
N85P: 63.6%
